Results collected from several papers.
A part holds a random share of what one study measured. Changes are numbered by the printed parent chain.

Sample 1 — method: protein binding microarray; form: double-stranded DNA, one strand shown; medium: in vitro; concentration: not given; relative to: not given; reading: higher = stronger binding
Target: Histone acetyltransferase KAT6A, winged helix 2, GST fusion (KAT6A, Homo sapiens, UniProt Q92794, residues 85-181)
Notes: 8-mer, flanks averaged, mean of 2 arrays, mostly near background
Residues (chain): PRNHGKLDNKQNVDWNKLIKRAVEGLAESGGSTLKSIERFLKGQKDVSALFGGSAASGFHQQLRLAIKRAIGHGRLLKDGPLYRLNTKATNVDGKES
Strand | E-score
ATTTTGTC | -0.0168
CCTGTATA | -0.199
AACATGGT | -0.0891
ATGGTCTG | -0.0112
ACAATTGT | -0.11
CTCCAGCA | 0.0924
CGGGGATA | -0.00318
ACGGGAAC | 0.202
CTCGTGTA | 0.0629
CTAACCCC | -0.174
CGTTCCCC | 0.000765
CGAAACCA | 0.12
CATGAACC | -0.132
AGCGTCGC | 0.144
ATGAAGTC | -0.121
CAGTTACA | -0.0825
AGTCATTC | -0.137
GAAAACTA | -0.0425
AACTATCC | -0.136
ATTTCTAG | 0.03
ACTAAGGA | -0.00769
AGGAGAAG | -0.102

Sample 2 — method: universal PBM; form: double-stranded DNA, one strand shown; medium: in vitro; concentration: 600 nM; reading: higher = stronger binding
Target: Sal-like protein 4, full length isoform A (SALL4, Homo sapiens, UniProt Q9UJQ4, residues 1-1053)
UniProt Q9UJQ4, sequence (whole entry, looked up): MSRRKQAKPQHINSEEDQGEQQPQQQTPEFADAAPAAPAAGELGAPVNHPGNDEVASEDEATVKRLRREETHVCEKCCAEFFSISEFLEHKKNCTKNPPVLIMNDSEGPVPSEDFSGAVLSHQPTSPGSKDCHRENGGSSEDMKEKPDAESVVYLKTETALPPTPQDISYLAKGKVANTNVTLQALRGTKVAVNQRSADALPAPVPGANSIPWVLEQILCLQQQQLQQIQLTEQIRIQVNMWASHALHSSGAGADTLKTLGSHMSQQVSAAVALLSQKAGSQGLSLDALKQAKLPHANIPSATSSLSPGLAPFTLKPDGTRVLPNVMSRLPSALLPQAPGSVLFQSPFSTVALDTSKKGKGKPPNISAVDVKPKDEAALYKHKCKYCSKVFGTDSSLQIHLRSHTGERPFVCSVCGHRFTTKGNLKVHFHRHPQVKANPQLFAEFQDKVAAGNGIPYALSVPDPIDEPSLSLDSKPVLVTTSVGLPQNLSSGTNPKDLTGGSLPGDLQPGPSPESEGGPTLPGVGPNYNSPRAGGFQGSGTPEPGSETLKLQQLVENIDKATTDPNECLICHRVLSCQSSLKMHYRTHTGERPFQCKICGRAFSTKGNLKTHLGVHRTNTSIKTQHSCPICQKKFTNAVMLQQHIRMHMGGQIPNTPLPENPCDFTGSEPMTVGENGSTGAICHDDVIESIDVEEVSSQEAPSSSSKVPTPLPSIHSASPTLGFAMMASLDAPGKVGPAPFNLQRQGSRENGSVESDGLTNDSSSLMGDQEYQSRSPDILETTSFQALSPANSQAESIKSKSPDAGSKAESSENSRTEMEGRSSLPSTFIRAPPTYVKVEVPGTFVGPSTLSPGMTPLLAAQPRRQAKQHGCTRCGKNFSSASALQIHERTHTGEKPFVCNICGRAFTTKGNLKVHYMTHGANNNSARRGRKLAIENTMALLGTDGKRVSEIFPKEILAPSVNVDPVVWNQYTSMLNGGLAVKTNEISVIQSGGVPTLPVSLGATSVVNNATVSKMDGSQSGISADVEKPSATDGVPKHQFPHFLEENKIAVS
Notes: 8-mer, flanks averaged, mean of replicates
Strand | E-score
GGCGGCCA | -0.282
CAAGGGAA | 0.121
AATGCGTA | 0.192
CTATGGAA | 0.196
GCGAGCTA | -0.0911
CGCCTTCA | -0.122
CAGGTACG | -0.203
AACTTGAC | 0.0592
CATGCTTA | 0.144
CGAAAGCC | -0.227
TCCACCGA | -0.19
AGGTTAAG | -0.0228
CGCCGGTC | -0.397
AGTTGGGA | -0.132
AGTTGCAG | -0.0419
GCATGAAC | -0.00843
CGATTCGC | -0.0977
CTCATAAA | 0.302
ATTGGCTG | -0.0426
ATTCTTTG | 0.259
AGCTTTGA | 0.137
ACAGAGCA | 0.158
CGTCAACG | -0.104
GACTGTTA | 0.153
GTGTGAGA | 0.0442

Sample 3 — method: RNA Bind-n-Seq; form: RNA; medium: in vitro; concentration: 365 nM; relative to: no-protein control; reading: higher = stronger binding
Target: RNA binding protein fox-1 homolog 2, RRM domain, GST-SBP tag (RBFOX2, Homo sapiens, UniProt O43251-10, residues 100-194)
Notes: natural RNA segment, single round, ends assumed
Shared flanks, not repeated: GGGAGUUCUACAGUCCGACGAUC … UGGAAUUCUCGGGUGCCAA
Residues (chain): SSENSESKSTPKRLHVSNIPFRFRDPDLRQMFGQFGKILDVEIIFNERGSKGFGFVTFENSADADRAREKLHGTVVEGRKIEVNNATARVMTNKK
Strand | RBNS enrichment (R)
GUUUCUACUGUGUGUAAAUGGGAGUCGCUCUCAUUAGUCCCAUUGCACUGACAUCCAGCACCUGGACAUCUCCCCUGGUGUCAGCCCACUGGCUCCGGGUCUACAUGGUG | 0.457
GAGGGAAACGCCCCCAGACUCCUGCUGCCACUGUUUUGUGAACUAAUGAACAUGAGCAGAAGCCUAAGUUGGGACAGCUCAGAACCAAGCAAGAGGGGGCCGUUUUAAUG | 0.431
UGUAGAAGAUGGACUCUGAAAAACAUUCCAGGAAACCAUGGCAGCAUGGAGAGCCUCUUAGUGAUUGUGUCUGCAUUGUUAUUGUGGAAGAUUUACCUUUUCUGUUGUAC | 0.389
UCAGUCUUUUCGGCAAGAACUUCAGAGAACUGUGACACUGGUUAUGAUGUGAUUUUGGGGGGUUUCAGGUACCUAAGCAUGAUUUUUAAAAUCACUUCUCUCUUUACAUA | 24.8
GAGUAUUAUUUUACAUAACCCGUCCUAGAGUAACAUUUUAGGCAACAUUCUUCAUUGCAAGUAAAAGAUCCAUAAGUGGCAUUUUACACGGCUGCGAGUAUUGUUAUAUC | 0.375
AGCUCUGUCUCCCCACUCUUGCUGUUGUGUUGUCCUUGUGAAUGUAUGGCUGACCCACUCCAGGCCAAGCAGCUUAACAGCAGGCUUGCUGUUAAGUCCCAAGUCCGUCA | 1.09
AAGAAAAUCCUCCCAGGAGAACAUGGAGUCUUAGAGAUCUGGAAGAGAUCGGAGUUUGACUAGGUUUCCUGUCUGCAAGUCAAUUUUUUUUGUGAAAUUAUCUUGAUUUA | 2.55
CUGGAAGAGAGUGGAACACCUUGGGUCCUGCCUGUUCAGGGUACUGAGGCCAAGAUGAGAAGUGACUCUCUCAAGGUCACACAGAUAGUGAUAGAACAAGAGCCCAGGCU | 0.209
ACAUUUUUGUUACUAGUGCCUAGAACAUAGUAGGUGCUCAAUAAAUACACAUGGAGUAAUUGAAUGACUUUCUCUUUUGGCAUCUGUAUGUGCAGAAUACUCAACAAUGU | 0.373
UAGUUUUUAAUUAAUCUUAAGAUCUGGUUACGGUAACUAAAAAAGCCUGUCUGCCAAAUCCAGUGGAAACAAGUGCAUAGAUGUGAAUUGGUUUUUAGGGGCCCCACUUC | 0.517
UUGCUGGGAAUAGACAACCUCAGUGCUGAACUGUACUGGAGAAAAGGGGCAAGGUACCCGCUGAGGUGUGUGGGCUGACUGGAGGUCCUGGAUCCCCCUACUGCUCCCAG | 0.407
CUGGCUGCCCUCCUCCCUGGCUGUGUAAAUAGUCUCCCUAUCCCACGAGGGGGCUUUGAUGGCCCUGGAGAUCCUACAGUAAAUAAACCAGCAUCCUGCCGCCCAAAGCC | 0.5

Sample 4 — method: RNA Bind-n-Seq; form: RNA; medium: in vitro; concentration: 200 nM; notes: whole 134-nt RNA, ends assumed; with: 150 mM LiCl; relative to: input library; reading: higher = stronger binding; library: 7-deaza-guanosine replaces G
Target: Fragile X messenger ribonucleoprotein 1, C-terminal low-complexity region (Fmr1, Mus musculus, UniProt P35922)
Shared flanks, not repeated: GGGAGUUCUACAGUCCGACGAUC … UGGAAUUCUCGGGUGUCAAGG
Strand | log2 enrichment
GCAGGAAGUAAAAACAAAUGGAAAUGCUUCGGAUAGUGGCAGGGGUGGGGGUUGCUAAGGAAAGGGUGGGAUGGGAGUAAAUAAAGAGUU | 1.27
GUCCUGUGCUACACAUCGUAUGUACCGAAUCGGGGAAAAAGGAAAAAGGGGAAAAAGGAAAGUAUUAUGUUACGCCGUUCGGAUCUGCAC | 0.117
UGUGCUACACAUCGUAUGUACCGAAUCGGGGAAAAAAAGGGGUUUUUGGGGUUUUUUUGGGGAAAGUAUUAUGUUACGCCGUUCGGAUCU | -1.16
UGUGCUACACAUCGUAUGUACCGAAUCGGGGAAAAAAAGGGGAAAAAAAGGAAAAAAAGGGGAAAGUAUUAUGUUACGCCGUUCGGAUCU | 0.673
GAAAGAAGUAAAAACAAAUGGAAAUGCUUCGGAUAGUGGCAGGGGUGGGGGUUGCUAAGGAAAGGGUGGGAUGGGAGUGGGUAAAGAGUU | 0.952
UUAAGAAUAUUUAGAUAUUUGUAAAAGAAUUUGAAUGAUUUAUUUAAUAUAACGUUUAUUUUAUUAGCUCUAUUCCAAUUGAUUACAACC | -3.72
UCCUGUGCUACACAUCGUAUGUACCGAAUCGGCCCCCCGGGGCCCCCCGGCCCCCCGGGGAAAGUAUUAUGUUACGCCGUUCGGAUCUGC | -2.61
CCUGUGCUACACAUCGUAUGUACCGAAUCGGGUUUUUUUGGGAAAAAAAGGGUUUUUGGGAAAGUAUUAUGUUACGCCGUUCGGAUCUGC | -2.84
AGUCCUGUGCUACACAUCGUAUGUACCGAAUCGGGGUUUUGGGGUUUUGGUUUUGGGGAAAGUAUUAUGUUACGCCGUUCGGAUCUGCAC | -1.57
CUGUGCUACACAUCGUAUGUACCGAAUCGGGGUUUUUUUGGGGUUUUUUUGGGUUUUUUUGGAAAGUAUUAUGUUACGCCGUUCGGAUCU | 1.38
UGGCCCUGGUGGCAUGCGGGGAGGAAGAGGUGGCCUCAUGGAUCGUAGUGGUCCCGGUGGAAUGUUCAGAGGUGGCCGUGGUGGAGACAG | 0.0959

Sample 5 — target: JDP2, bZIP domain (human); method: DHFR protein complementation; medium: yeast; relative to: wild-type JUN-FOS pair; reading: higher = stronger binding
Notes: single substitutions, most at no-binding floor
Starting sequence: JUN, bZIP domain (human); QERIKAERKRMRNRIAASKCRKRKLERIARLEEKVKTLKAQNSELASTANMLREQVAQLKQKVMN; partner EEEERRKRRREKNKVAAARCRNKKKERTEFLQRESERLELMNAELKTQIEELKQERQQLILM
Change | binding fitness [natural log]
Q55T | 0.264
Q41K | 0.264
E44R | 0.223
Q41V | 0.228
V56Y | -0.441
T37D | 0.236
A46G | 0.21
E44M | 0.24
R30H | 0.33
M51W | 0.218
S43H | 0.293
T37M | 0.411
L45M | 0.236
L38G | 0.0742
L38C | -0.0189
S47P | -0.171
A49L | 0.252
T48C | 0.243
N42I | -0.108
E32G | 0.182

Repeated from above (sample 5):
Change | binding fitness [natural log]
M51W | 0.218
S43H | 0.293
T37M | 0.411
L45M | 0.236
L38G | 0.0742
L38C | -0.0189
S47P | -0.171
